Measurements collected from several papers.
Each line is one published result; not all experiments were run side by side. Values joined by “and” are separate records of one study, mostly repeats; a detail may differ. ± marks the error that the study gave.

`CCOC(=O)C1(Cc2ccccc2)Oc2cc(F)ccc2N(Cc2ccccc2)C1=O` (centres unmarked) has an inhibition of 0.1% (L02; cell growth or viability, CCK-8; 3.13 µM, 72 h).
The EC50 of `CNC(=S)NCCCC[C@H](NC(=O)CCc1ccccc1)C(=O)N[C@@H](CCCNC(=N)N)C(=O)N[C@@H](CC1CCCCC1)C(=O)N[C@H](CCCCN)C(=O)N[C@@H](CC1CCCCC1)C(N)=O` is reported as 74.1 µM (HEK-293T; cell growth or viability, MTT; 72 h).
`CC(C)C12OC1C1OC13C1(C)CCC4=C(COC4=O)C1CC1OC13C2OC(=O)CCCOC1OC(CO)C(O)C(O)C1O` (centres unmarked) gave an IC50 of 10.9 µM (human Astrocyte; cell growth or viability, XTT; 47 h).
For `N#Cc1cccc(-c2ccc(=O)n(Cc3cccc(-c4ncc(OCC5CCN(CC(=O)N6CCN(c7ccc8c(c7)C(=O)N(C7CCC(=O)NC7=O)C8=O)CC6)CC5)cn4)c3)n2)c1` (centres unmarked), “protein level fold change” read -2.81 (EBC-1; label-free proteomics, item: PLEK2; concentration not given; baseline: control).
With `CCCC(=O)[O][Pt]([Cl])([Cl])[O]C(=O)CCC.N.N` the IC50 reduction was 26.4% (A549/DDP cisplatin-resistant; with: survivin siRNA transfection; baseline: non-transfected cells).
With `COc1ccc(NC(=O)c2ccc3[nH]c(-c4ccc(N(C)C)cc4)nc3c2)cn1` the PI-positive cells was 296 count and 233 count and 206 count (HCT116; IncuCyte; concentration not given, 48 (unit not given)).
For `COc1ccccc1-c1ccncc1C(=O)Nc1nnc(OCc2ccc(Cl)cc2)s1`, the colony survival was 98.6% and 95.2% and 97% (DLD-1 parental; 2 µM; baseline: untreated).
`CC(C)(C)C(=O)OCOP(=O)(OCOC(=O)C(C)(C)C)C1CCCN(O)C1=O` (centres unmarked) has a log GI50 of -6.37 log M (MOLT-4).
`C=CCN1C(=O)C(CC=C)(C(=O)OCC)Oc2cc(F)ccc21` (centres unmarked) has an inhibition of 0.15% (L02; cell growth or viability, CCK-8; 3.13 µM, 72 h).
For `CC(=O)NCSC[C@H](NC(=O)[C@@H]1CCCN1C(=O)[C@H](C)NC(=O)[C@@H](NC(=O)CNC(=O)[C@@H](NC(=O)[C@H](Cc1c[nH]c2ccccc12)NC(=O)[C@H](C)NC(=O)CNC(=O)[C@H](CO)NC(=O)[C@H](C)NC(=O)[C@@H]1CCCN1C(=O)[C@H](Cc1c[nH]c2ccccc12)NC(=O)[C@H](C)NC(=O)[C@H](C)NC(=O)[C@@H](N)Cc1ccc(O)cc1)[C@@H](C)O)[C@@H](C)O)C(=O)N[C@@H](CO)C(=O)N[C@@H](C)C(=O)NCC(=O)N[C@H](C(=O)NCCOCCOCCOCCOCCOCCOCCOCCOCCOCCOCCOCCOCCC(=O)N[C@@H](CS)C(N)=O)[C@@H](C)O`, the selectivity ratio was 19 ± 12 (HCC366 lung adenosquamous carcinoma; cell binding, phage binding, item: output/input phage; 10 min, 37 °C; baseline: control phage).
`NC(=S)N/N=C/c1ccc(OCc2ccccc2)cc1`: “glutathione peroxidase activity (OD450)” 0.018 a.u. (IMR-32; item: GPX3; 50 µg/mL, 24 h; higher = more activity).

Excerpt of the above:
With `COc1ccc(NC(=O)c2ccc3[nH]c(-c4ccc(N(C)C)cc4)nc3c2)cn1` the PI-positive cells was 296 count and 233 count and 206 count (HCT116; IncuCyte; concentration not given, 48 (unit not given)).
For `COc1ccccc1-c1ccncc1C(=O)Nc1nnc(OCc2ccc(Cl)cc2)s1`, the colony survival was 98.6% and 95.2% and 97% (DLD-1 parental; 2 µM; baseline: untreated).
